Results gathered from unrelated publications.
A part holds a random share of what one study measured. Changes are numbered by the printed parent chain.

Series 1
Target: CCNA2, cyclin fold, Cln2 fusion (human)
Technique: yeast growth competition, sequencing
Matrix: yeast
Notes: strong parent motif
Reference: not given
Direction: higher = stronger binding
Endpoint: normalised enrichment score
Starting sequence: SAMHD1 docking peptide (human); ASKSRVQLFKDDP; partner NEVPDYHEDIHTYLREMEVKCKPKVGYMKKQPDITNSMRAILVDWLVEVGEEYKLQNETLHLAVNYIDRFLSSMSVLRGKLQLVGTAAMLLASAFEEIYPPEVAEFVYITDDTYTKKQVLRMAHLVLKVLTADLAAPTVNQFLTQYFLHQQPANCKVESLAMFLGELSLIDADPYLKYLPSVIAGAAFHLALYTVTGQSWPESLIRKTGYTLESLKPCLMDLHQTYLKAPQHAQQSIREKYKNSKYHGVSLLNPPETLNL
Change = ASKSRVQLFKADP [D11A]; result = 1.68
Change = AEKSRVQLFKDDP [S2E]; result = 1.59
Change = ASKSRVQLCKDDP [F9C]; result = -0.00555
Change = ASKSRVTLFKDDP [Q7T]; result = 0.913
Change = ARKSRVQLFKDDP [S2R]; result = 3.09
Change = ASKSRVQRFKDDP [L8R]; result = -0.231
Change = ASKSRVQLFKDWP [D12W]; result = 3
Change = ASKSRVHLFKDDP [Q7H]; result = 0.457
Change = ASKSRVQLFKRDP [D11R]; result = 1.6

Series 2
Target: Hepatocyte nuclear factor 3-beta, forkhead domain (FOXA2, Homo sapiens, UniProt Q9Y261, residues 142-269)
Technique: protein-binding microarray
Molecule type: double-stranded DNA, one strand shown
Matrix: in vitro
Tested at: not given
Notes: k-mer, scored over probes, only values ≥0.25
Direction: higher = stronger binding
Endpoint: E-score
Construct (chain): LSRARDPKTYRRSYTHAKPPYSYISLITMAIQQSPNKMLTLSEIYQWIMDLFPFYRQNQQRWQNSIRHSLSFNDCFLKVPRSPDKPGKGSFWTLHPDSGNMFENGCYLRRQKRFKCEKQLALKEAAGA
Strand = CAGTATAA; result = 0.336
Strand = GTAATCAA; result = 0.3
Strand = CATATAAC; result = 0.294
Strand = ATATCATC; result = 0.275
Strand = CGATAACA; result = 0.263
Strand = ATATGGTG; result = 0.269
Strand = ACAAGTAG; result = 0.266
Strand = AAGTATAC; result = 0.341
Strand = AACCTATG; result = 0.253
Strand = ACAATCAT; result = 0.335
Strand = ACACATGT; result = 0.323
Strand = TACATACA; result = 0.407

Series 3
Target: Signal transducer and activator of transcription 1-alpha/beta, full length (STAT1, Homo sapiens, UniProt P42224, residues 1-750)
Chain of UniProt P42224 (whole entry, looked up): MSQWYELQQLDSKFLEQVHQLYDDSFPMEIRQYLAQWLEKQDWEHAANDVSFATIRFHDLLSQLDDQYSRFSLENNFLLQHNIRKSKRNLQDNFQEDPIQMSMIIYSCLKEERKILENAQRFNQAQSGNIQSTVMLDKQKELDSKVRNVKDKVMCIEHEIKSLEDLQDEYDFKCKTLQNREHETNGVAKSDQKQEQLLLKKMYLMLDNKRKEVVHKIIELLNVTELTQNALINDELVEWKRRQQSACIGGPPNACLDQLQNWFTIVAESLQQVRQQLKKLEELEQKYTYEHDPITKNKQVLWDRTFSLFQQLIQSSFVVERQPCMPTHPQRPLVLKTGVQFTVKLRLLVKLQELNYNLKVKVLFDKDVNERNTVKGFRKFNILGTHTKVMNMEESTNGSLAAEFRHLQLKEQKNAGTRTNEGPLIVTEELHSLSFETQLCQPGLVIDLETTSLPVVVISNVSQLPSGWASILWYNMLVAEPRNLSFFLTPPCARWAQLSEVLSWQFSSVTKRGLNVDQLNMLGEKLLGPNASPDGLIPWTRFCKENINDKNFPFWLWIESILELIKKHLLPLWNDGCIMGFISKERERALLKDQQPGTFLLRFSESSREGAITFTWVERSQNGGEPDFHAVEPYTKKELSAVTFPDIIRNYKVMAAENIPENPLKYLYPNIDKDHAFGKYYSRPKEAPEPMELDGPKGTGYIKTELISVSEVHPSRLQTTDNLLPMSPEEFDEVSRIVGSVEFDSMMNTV
Technique: protein-binding microarray
Molecule type: hairpin DNA
Matrix: in vitro
Tested at: not given
Notes: whole hairpin DNA, median over replicate spots
Reference: not given
Direction: higher = stronger binding
Endpoint: median fluorescence
Shared flanks, not repeated: GAGGCCT … AGGCCTCACACTCTTTCCCTACACG
Strand = TTCCCCTAAGCCTCCTGGCTTAGGGGAA (5mC at 13); result = 1050 a.u.
Strand = TACCCGGAAGCCTCCTGGCTTCCGGGTA; result = 3430 a.u.
Strand = CTCCCGGAAGCCTCCTGGCTTCCGGGAG; result = 1460 a.u.
Strand = TTCCCCGAAGCCTCCTGGCTTCGGGGAA (5mC at 13); result = 1150 a.u.
Strand = TTCCCGGCAGCCTCCTGGCTGCCGGGAA (5mC at 15); result = 2130 a.u.
Strand = CCCCCGGAAGCCTCCTGGCTTCCGGGGG (5mC at 8); result = 942 a.u.
Strand = CGCCCGGAAGCCTCCTGGCTTCCGGGCG (5mC at 8 34); result = 1150 a.u.
Strand = TTCCCGGCGGCCTCCTGGCCGCCGGGAA (5mC at 15); result = 875 a.u.

Series 4
Target: RNA binding protein fox-1 homolog 2, RRM domain, GST-SBP tag (RBFOX2, Homo sapiens, UniProt O43251-10, residues 100-194)
Technique: RNA Bind-n-Seq
Molecule type: RNA
Matrix: in vitro
Tested at: 365 nM
Notes: natural RNA segment, single round, ends assumed
Reference: no-protein control
Direction: higher = stronger binding
Endpoint: RBNS enrichment (R)
Shared flanks, not repeated: GGGAGUUCUACAGUCCGACGAUC … UGGAAUUCUCGGGUGCCAA
Strand = UUAGAUGUUUCGUUCAUUCACUCACUCAUUCAGUUACUCCUAAGACUUUUCAGUUUCAUAAGGAAGAGUGUUGCCUGAGGCCCUAGGGAAUAUUGGGGAAUAGAAGGGAU; result = 0.606
Strand = GGGAGGAUCAUUUGUGCCCAGGUUGAGGCUAUAGUGAGCCAUGAUCAUACCACUGCACUCCAGCCUGGGUGACAGAGCGAGACCCUGUCUCAAAAAAAAAAAAGAAUUUG; result = 0.595
Strand = GAAUGGAUCCUUUAUUUUUAAAAUAAUCAAAAUUUGAAUAAUUGCUACACAUGGUUGCUAUUUAUUUCUACAUGAAGCUUAUUCUCACUUGGAGGUUCUGAAGAUUCUGU; result = 0.438
Strand = AGAAUGUGCAGUGUCUUGUAACAACUAAUUAUAAUGCAAAUUAGGGCUACAUUGUAAUCUGCUUUGUUAAUGAAAAUGAUAAAACAGAAUAUUGACAAGCUAGGACACCU; result = 0.478
Strand = CUGGCUUUUAAAAUAUAGAUCAGAUCAAUUUACCCGACUUCAUGAAUAAUCCUAAAUUCUCUGGAAUAAAAAACUGAUUUCUUUGUUAAUUACUUGUACGAUGAAGGAUG; result = 0.401
Strand = UCCUCUUCAUAGGCAGAAUCCUGGACCCCAGUAGUACUUAAUGUCUCAGUGCUCUACAGAACCCCCAGAGGGAAGCUGAUUAUACAUUCCAGGAAGGCGGCCGGUAGCUU; result = 0.47

Series 5
Target: Interferon regulatory factor 7, full length, phosphomimetic (IRF7, Homo sapiens, UniProt Q92985, residues 1-503, S471D/S472D/S475D/S476D/S477D/S483D/S484D/S487D)
Technique: protein-binding microarray
Molecule type: double-stranded DNA, one strand shown
Matrix: in vitro
Tested at: 2200 nM top
Notes: 60-bp whole probe
With: salmon DNA 0.4 mg/ml
Reference: random background probes
Direction: higher = stronger binding
Endpoint: fitted relative affinity
Shared flanks, not repeated: GCCTAGCAC … GTCTTGATTCGCTTGACGCTGCTG
Residues (chain): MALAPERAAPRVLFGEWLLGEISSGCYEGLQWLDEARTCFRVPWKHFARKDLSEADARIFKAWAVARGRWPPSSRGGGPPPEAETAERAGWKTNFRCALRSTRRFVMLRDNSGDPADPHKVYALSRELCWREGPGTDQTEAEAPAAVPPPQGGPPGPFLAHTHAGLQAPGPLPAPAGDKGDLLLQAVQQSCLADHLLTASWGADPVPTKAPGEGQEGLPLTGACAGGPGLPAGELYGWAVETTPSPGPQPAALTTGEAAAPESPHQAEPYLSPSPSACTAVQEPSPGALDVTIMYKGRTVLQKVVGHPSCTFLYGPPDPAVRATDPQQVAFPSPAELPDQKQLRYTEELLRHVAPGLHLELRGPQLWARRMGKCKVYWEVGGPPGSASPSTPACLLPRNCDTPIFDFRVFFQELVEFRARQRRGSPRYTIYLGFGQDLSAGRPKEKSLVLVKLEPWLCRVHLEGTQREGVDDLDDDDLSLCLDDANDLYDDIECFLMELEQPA
Strand = TTAGGTTCCCTTTTCCTTAAGTGCTAG; result = 2.75 z-score
Strand = TGTGTTTTCATTTTATGACAGTGCTAG; result = 4.65 z-score
Strand = TCAGCCCTCACCATCATACTGTGCTAG; result = 0.976 z-score
Strand = GACGGGCTGGACACTGGGGACGTGCTA; result = -1.15 z-score
Strand = TTAGGTATCGGTTTCCGTTAGTGCTAG; result = 3.7 z-score
Strand = GACGGTCTCCTTCTCTTGACGTGCTAG; result = 1.26 z-score
Strand = TCAGGTATGGCCTATTTAACTGTGCTA; result = -0.0753 z-score
Strand = TTAGGTTTCGGTATCCGTTAGTGCTAG; result = 8.29 z-score
Strand = GACCGTATCGGTTTCGGGACGTGCTAG; result = 4.1 z-score
Strand = TCACTCTTCTGCTTCCTACTGTGCTAG; result = 2.6 z-score
Strand = GCAAATATATCAGTGAATTTGTGCTAG; result = -0.104 z-score
Strand = TTAGGTCTCGGACTTGGTTAGTGCTAG; result = -0.052 z-score

Series 6
Target: Histone acetyltransferase KAT6A, winged helix 1, GST fusion (KAT6A, Homo sapiens, UniProt Q92794, residues 1-85)
Technique: protein binding microarray
Molecule type: double-stranded DNA, one strand shown
Matrix: in vitro
Tested at: not given
Notes: 8-mer, flanks averaged, mean of 2 arrays, mostly near background
Reference: not given
Direction: higher = stronger binding
Endpoint: E-score
Residues (chain): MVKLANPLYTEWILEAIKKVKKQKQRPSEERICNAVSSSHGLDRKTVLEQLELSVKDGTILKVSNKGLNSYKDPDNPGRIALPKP
Strand = CGCTTAAG; result = 0.216
Strand = CAAGCTGA; result = -0.219
Strand = AGTGATGG; result = -0.228
Strand = CAGGAGAA; result = -0.155
Strand = ATCCGATG; result = 0.0608
Strand = GTTGCATA; result = -0.068
Strand = TCGTCTCA; result = -0.0916
Strand = CTAAAAAA; result = -0.153
Strand = ATAGACAC; result = -0.168
Strand = GAACTTAC; result = 0.0542
Strand = AAGAGGAT; result = -0.196
Strand = ACCAGCGA; result = -0.0067
Strand = GTAACGCA; result = 0.149
Strand = CAGTTACG; result = 0.237
Strand = CCGTCCGC; result = 0.442
Strand = ATCAGCGA; result = 0.0919
Strand = AATTGTCT; result = -0.171

Series 7
Target: Ras GTPase-activating protein-binding protein 1, full length (G3BP1, Homo sapiens, UniProt Q13283)
Chain of UniProt Q13283 (whole entry, looked up): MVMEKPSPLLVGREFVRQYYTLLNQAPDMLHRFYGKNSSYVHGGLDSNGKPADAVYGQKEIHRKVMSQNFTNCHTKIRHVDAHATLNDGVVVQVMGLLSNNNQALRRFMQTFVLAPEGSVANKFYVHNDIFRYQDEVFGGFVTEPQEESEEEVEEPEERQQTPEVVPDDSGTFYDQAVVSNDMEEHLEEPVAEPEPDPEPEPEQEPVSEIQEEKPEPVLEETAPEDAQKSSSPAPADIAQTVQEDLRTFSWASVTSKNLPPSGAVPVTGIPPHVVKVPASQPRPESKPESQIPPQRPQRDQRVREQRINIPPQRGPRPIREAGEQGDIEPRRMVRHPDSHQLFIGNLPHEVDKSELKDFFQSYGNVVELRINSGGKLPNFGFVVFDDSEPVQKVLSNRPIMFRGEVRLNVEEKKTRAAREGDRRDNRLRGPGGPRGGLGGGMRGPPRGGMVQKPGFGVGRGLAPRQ
Technique: RNA Bind-n-Seq
Molecule type: RNA
Matrix: in vitro
Tested at: 200 nM
Notes: whole 134-nt RNA, ends assumed
With: 150 mM LiCl
Reference: input library
Direction: higher = stronger binding
Endpoint: log2 enrichment
Each molecule: 7-deaza-guanosine replaces G
Shared flanks, not repeated: GGGAGUUCUACAGUCCGACGAUC … UGGAAUUCUCGGGUGUCAAGG
Strand = ACCAUGCAGGUGGGCAUCUUUGGGAAGUGGGGCAAGUGGGGGAUAGGGAGGGGGGUAACACUUUGGGAACAGGUGGUCCCAGGUCGUUUC; result = 0.515
Strand = UCAAGGGUUAUACACGGAAAGCCGCUGCGCUGGAAGCGAUGAAGGACUACACCAAAGCCAUGGAUGUGUACCAGAAGGCGCUAGACCUGG; result = -0.496
Strand = CAAGUCCUGUGCUACACAUCGUAUGUACCGAAUCGGAAAGGGAAAGGGGAAAGGGAAAGUAUUAUGUUACGCCGUUCGGAUCUGCACUUC; result = -0.201
Strand = GUCCUGUGCUACACAUCGUAUGUACCGAAUCGGGUUUUUUUGGGAAAAAAAGGGUGGGAAAGUAUUAUGUUACGCCGUUCGGAUCUGCAC; result = -1.91
Strand = CACAGACAACACGCACCCACACAGACACAGAGGGAAGGGGUUGGGAUGGGGACAGGGUGCACAGCACGGCGGGGUAGGACCCCAGCCCCU; result = -0.0316
Strand = CCUCAAGUCCUGUGCUACACAUCGUAUGUACCGAAUCGGAGGGGAGGAGGGGAAAGUAUUAUGUUACGCCGUUCGGAUCUGCACUUCCAG; result = 0.245
Strand = UCAAGUCCUGUGCUACACAUCGUAUGUACCGAAUCGGAAAAAGGAAAGGAAAGGAAAGUAUUAUGUUACGCCGUUCGGAUCUGCACUUCC; result = -0.627

Excerpt of the above (series 6):
Strand = TCGTCTCA; result = -0.0916
Strand = CTAAAAAA; result = -0.153
Strand = ATAGACAC; result = -0.168
Strand = GAACTTAC; result = 0.0542
Strand = AAGAGGAT; result = -0.196
Strand = ACCAGCGA; result = -0.0067
Strand = GTAACGCA; result = 0.149
Strand = CAGTTACG; result = 0.237
Strand = CCGTCCGC; result = 0.442
Strand = ATCAGCGA; result = 0.0919
